Measurements collected from several papers.
± marks the error that the study gave.
Organism: Plasmodium berghei

With CCCN(CCC)CC1=C(O)C(=O)c2ccccc2C1=O the parasitaemia inhibition was 63% (NK65, mouse; oral, 100 mg/kg for 3 days, day 5 post-infection).
With COc1ccc(S(=O)(=O)NCc2c[nH]nc2-c2cccs2)cc1 the EC50 was 108 ± 21 nM (liver stage multiplication; HepG2, sporozoites; added before invasion).
With O=C1C(O)=C(CN2CC3CCC2CC3)C(=O)c2ccccc21 the parasitaemia inhibition was 63% (NK65, mouse; oral, 100 mg/kg for 3 days, day 5 post-infection).
With CC(C)C(C(=O)N[C@@H](Cc1ccccc1)[C@H](O)CN1CCN(Cc2ccc(Br)cc2)CC1)N1C(=O)c2ccccc2C1=O (stereo partly drawn) the IC50 was 30000 nM (parasite growth; HepG2; liver stage).
For CCN(CC)c1ccc2nc3c4ccccc4/c(=N/c4ccncc4)cc-3oc2c1, the ED90 was 20 mg/kg (parasitemia; mouse; oral, single dose; reference: untreated).
With O=C1C2=C(Nc3ccccc3SC2c2ccsc2)c2ccccc21 (racemic) the IC50 was 151 ± 42 nM (liver stage growth; HepG2, ANKA, luciferase-expressing; 45 h post-infection).
The inhibition of CC(C)(C)OC(=O)N[C@H](Cc1ccccc1)[C@@H](O)CN1CCC(N2CCCCC2)CC1 is reported as 44% (parasite growth; HepG2; 1 µM, liver stage).
With O=C(C1CCN(c2nnnn2-c2ccccc2)CC1)N1CCCc2ccccc21 the IC50 was 90 nM (parasite growth, luciferase; 48 h, liver stage).
With O=C1C2=C(Nc3ccccc3SC2c2ccc(F)cc2)c2ccccc21 (racemic) the IC50 was 391 ± 28 nM (liver stage growth; HepG2, ANKA, luciferase-expressing; 45 h post-infection).

For quick reference, copied from above:
With CCCN(CCC)CC1=C(O)C(=O)c2ccccc2C1=O the parasitaemia inhibition was 63% (NK65, mouse; oral, 100 mg/kg for 3 days, day 5 post-infection).
